Measured values from different studies.
A part holds a random share of what one study measured. Values joined by “and” are separate records of one study, mostly repeats; a detail may differ.
UniProt P10721, sequence (whole entry, unmodified, looked up): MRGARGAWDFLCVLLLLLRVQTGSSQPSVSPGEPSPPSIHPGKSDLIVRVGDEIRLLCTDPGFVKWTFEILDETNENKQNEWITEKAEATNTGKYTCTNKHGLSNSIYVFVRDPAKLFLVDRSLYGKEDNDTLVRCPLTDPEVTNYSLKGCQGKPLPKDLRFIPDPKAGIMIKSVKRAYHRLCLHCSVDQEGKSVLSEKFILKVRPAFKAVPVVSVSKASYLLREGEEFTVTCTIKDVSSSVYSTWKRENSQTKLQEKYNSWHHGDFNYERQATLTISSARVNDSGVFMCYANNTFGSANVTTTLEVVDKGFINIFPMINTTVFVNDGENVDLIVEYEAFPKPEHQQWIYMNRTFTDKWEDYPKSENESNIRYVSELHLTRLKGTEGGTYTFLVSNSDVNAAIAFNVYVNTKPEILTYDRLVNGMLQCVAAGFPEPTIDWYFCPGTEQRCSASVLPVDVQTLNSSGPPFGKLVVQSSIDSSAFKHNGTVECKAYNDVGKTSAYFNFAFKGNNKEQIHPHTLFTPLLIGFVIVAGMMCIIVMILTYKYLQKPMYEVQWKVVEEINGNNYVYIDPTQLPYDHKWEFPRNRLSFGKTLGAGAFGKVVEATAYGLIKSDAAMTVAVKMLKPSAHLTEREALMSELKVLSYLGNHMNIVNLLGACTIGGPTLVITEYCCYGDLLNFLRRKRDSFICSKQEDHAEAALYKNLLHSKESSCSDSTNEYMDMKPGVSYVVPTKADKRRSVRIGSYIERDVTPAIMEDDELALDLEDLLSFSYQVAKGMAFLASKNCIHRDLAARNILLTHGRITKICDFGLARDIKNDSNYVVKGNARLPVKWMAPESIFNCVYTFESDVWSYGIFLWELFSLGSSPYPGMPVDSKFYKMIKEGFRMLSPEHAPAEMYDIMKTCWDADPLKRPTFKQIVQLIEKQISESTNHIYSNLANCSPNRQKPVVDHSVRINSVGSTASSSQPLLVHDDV
UniProt Q8TDC3, sequence (whole entry, looked up): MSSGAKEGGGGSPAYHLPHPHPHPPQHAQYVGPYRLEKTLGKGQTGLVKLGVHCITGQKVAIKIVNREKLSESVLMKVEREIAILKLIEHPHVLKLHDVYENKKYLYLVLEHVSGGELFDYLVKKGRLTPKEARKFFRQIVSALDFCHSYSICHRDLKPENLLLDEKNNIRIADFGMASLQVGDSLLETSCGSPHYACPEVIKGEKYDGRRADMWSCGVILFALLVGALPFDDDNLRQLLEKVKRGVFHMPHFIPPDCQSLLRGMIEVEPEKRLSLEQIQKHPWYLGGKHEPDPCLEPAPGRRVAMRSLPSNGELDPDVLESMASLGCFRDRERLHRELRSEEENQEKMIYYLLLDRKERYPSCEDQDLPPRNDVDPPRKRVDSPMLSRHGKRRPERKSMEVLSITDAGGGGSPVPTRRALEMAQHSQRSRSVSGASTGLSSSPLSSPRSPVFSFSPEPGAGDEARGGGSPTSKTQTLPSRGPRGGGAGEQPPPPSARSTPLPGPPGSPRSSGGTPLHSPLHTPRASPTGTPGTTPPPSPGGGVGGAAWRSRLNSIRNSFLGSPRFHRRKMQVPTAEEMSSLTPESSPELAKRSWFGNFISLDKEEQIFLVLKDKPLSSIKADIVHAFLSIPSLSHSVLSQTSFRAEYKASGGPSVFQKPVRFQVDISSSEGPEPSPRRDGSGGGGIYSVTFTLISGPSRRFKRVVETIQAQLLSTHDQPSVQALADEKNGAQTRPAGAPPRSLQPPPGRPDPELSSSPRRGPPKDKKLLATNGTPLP
UniProt O75676, sequence (whole entry, looked up): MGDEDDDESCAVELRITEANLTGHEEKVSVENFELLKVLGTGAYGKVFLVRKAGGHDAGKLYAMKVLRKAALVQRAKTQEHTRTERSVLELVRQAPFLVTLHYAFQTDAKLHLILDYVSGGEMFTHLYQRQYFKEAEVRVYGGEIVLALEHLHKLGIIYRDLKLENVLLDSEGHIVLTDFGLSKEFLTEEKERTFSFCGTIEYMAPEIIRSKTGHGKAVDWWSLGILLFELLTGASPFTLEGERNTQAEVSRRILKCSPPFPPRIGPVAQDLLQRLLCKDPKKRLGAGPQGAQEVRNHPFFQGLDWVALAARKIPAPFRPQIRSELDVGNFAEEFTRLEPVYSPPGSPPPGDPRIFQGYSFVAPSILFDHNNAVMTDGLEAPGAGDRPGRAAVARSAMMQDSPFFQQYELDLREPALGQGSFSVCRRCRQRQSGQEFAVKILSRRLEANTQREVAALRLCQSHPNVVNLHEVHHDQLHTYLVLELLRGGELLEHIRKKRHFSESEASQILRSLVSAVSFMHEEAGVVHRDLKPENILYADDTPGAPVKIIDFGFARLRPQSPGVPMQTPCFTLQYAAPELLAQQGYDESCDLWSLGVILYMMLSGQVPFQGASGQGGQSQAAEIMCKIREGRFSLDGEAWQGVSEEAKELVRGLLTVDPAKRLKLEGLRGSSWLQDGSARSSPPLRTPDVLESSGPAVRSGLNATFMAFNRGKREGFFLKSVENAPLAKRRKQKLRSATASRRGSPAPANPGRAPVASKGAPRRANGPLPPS
UniProt P42336, sequence (whole entry, unmodified, looked up): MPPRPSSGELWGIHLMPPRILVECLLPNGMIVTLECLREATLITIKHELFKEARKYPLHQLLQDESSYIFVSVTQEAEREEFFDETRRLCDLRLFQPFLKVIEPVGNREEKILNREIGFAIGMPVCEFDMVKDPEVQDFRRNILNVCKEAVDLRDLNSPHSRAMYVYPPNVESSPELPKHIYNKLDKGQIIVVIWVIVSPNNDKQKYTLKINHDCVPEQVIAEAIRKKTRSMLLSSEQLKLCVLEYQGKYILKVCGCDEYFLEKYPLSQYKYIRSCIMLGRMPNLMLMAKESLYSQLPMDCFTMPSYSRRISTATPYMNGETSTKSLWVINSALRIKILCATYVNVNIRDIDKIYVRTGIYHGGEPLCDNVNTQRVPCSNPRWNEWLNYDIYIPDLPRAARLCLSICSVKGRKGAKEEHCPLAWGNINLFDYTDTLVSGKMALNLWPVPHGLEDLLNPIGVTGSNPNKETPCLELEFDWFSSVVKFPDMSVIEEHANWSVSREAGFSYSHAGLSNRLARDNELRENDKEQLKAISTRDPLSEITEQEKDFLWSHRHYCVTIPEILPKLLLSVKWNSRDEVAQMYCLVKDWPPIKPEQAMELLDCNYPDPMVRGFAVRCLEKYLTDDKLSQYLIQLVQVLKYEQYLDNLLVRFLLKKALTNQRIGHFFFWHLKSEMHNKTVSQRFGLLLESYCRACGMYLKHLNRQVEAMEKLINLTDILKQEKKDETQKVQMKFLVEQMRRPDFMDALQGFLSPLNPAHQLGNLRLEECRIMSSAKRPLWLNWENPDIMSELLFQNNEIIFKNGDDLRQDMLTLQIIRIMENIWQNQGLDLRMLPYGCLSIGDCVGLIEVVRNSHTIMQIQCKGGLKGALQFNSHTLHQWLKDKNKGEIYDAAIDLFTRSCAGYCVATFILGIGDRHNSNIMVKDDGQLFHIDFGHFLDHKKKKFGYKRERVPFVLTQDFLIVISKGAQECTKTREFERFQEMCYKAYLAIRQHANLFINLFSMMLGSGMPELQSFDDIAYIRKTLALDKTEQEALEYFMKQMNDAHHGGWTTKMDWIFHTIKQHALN
UniProt O76039, sequence (whole entry, looked up): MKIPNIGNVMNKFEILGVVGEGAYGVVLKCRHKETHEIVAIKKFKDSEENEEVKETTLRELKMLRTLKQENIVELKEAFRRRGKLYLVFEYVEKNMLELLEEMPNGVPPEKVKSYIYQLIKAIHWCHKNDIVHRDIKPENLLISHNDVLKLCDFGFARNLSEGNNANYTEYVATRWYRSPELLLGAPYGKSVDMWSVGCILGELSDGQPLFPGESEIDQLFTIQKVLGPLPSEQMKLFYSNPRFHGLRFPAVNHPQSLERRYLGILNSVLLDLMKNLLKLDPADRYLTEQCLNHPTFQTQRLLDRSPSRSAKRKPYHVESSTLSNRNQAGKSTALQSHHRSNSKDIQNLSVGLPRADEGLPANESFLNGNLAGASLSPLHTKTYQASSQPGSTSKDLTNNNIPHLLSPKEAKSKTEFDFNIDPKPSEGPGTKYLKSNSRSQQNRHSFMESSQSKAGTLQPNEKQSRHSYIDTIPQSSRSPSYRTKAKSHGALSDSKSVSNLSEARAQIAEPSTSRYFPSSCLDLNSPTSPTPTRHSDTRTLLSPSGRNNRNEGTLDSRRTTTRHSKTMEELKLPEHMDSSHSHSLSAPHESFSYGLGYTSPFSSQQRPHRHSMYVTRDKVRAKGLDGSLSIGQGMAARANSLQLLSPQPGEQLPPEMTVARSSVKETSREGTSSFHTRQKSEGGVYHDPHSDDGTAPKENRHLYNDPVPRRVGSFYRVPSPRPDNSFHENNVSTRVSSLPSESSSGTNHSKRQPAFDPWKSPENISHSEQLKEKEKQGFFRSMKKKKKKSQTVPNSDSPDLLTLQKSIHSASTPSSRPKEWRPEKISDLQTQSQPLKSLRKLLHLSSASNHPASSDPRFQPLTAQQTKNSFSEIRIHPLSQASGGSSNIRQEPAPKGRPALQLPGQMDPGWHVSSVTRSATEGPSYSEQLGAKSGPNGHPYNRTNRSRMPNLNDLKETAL

Set 1
Structure (SMILES): c1ccc(Oc2ccc(Nc3c4c(nc5ccccc35)CCC4)cc2)cc1
Organism: Leishmania infantum
Method: qPCR, delta Ct
Species: golden hamster, infected
Route: oral
Dose: 10 mg/kg/day
Time: 10 days
Baseline: microglobulin reference gene
item | sample | relative mRNA level
IL10 | liver | 10.6 and 10.1 and 12.8 and 13 and 12.3 and 11.6
TNF | liver | 8.79 and 7.17 and 4.74 and 8.93 and 6.4 and 6.33
IL17 | spleen | 9.37 and 7.88 and 9.12 and 7.53 and 8.17 and 6.73
IL4 | spleen | -0.246 and 0.571 and 4.02 and 1.21 and 0.482 and -0.278
IL17 | liver | 11.8 and 14 and 12.9 and 13.5 and 11
TNF | spleen | -0.288 and 0.449 and -0.111 and 1.3 and 1.05 and 3.96

Set 2
Sample: hydrocarbon/water
Structure (SMILES) | logD
CCN1CC(=O)N[C@@H](CC(C)C)C(=O)N2CCC[C@@H]2C(=O)N(C)[C@@H](CC(C)C)C(=O)N[C@@H](C)C(=O)N(CC2CCOCC2)CC(=O)N[C@@H](C)C(=O)N2CCC[C@@H]2C(=O)N(C)[C@@H](CC(C)C)C(=O)N[C@@H](C)C1=O | -0.599
CCC[C@@H]1NC(=O)CSC[C@@H](C(=O)OCC)N(C)C(=O)[C@H](CC(C)C)NC(=O)[C@H](C)N(C)C(=O)[C@@H](CC(C)C)NC(=O)[C@H](C)N(C)C(=O)[C@@H]2CCCN2C(=O)[C@@H](CC(C)C)NC(=O)CN(CCC)C1=O | 1.33
CC(C)C[C@@H]1NC(=O)[C@H](Cc2ccc(O)cc2)NC(=O)[C@H]2CCCN2C(=O)[C@H](CC2CCCCC2)NC(=O)[C@H](CC2CCCCC2)NC(=O)[C@@H](CC(C)C)NC1=O | 2
CCOC(=O)[C@@H]1CSCC(=O)N[C@H](CC)C(=O)N(C)[C@@H](C)C(=O)N[C@H](CC(C)C)C(=O)N2CCC[C@@H]2C(=O)N(CC)CC(=O)N[C@H](CC(C)C)C(=O)N(C)[C@H](C)C(=O)N[C@@H](CC(C)C)C(=O)N1C | 0.307
CC(C)C[C@@H]1NC(=O)[C@H](C)N(C)C(=O)[C@H](CC2CCCCC2)NC(=O)[C@H](C)N(C)C(=O)[C@H]2CCCN2C(=O)[C@H](CC2CCCCC2)NC(=O)CN(CC(C)C)C(=O)[C@H](C2CCCCC2)NC(=O)Cn2cc(nn2)CN(C)C1=O | 2.67

Set 3
Cell line: A-375
Concentration: 100 µM
Time: 18 h
Compound | viability
N=C(N)NC(=O)Cc1c(Cl)cccc1Cl | 80.6%
CNC[C@H](O)c1ccc(O)c(O)c1 | 141%
CC(=O)OC/C=C(C)/C=C/C=C(C)/C=C/C1=C(C)CCCC1(C)C | 79.8%
Cc1ccc(C)c(OCCCC(C)(C)C(=O)O)c1 | 108%
COC(=O)[C@@H]1[C@H]2C[C@H]3c4[nH]c5ccccc5c4CCN3C[C@@H]2CC[C@@H]1O | 83%
CCN(CC)C(=O)N1CCN(C)CC1 | 103%
O=C(O)[C@H](O)[C@@H](O)[C@H](O)[C@H](O)CO | 102%
NC[C@H]1O[C@H](O[C@H]2[C@H](O[C@@H]3O[C@H](CO)[C@@H](O)[C@H]3O)[C@@H](O)[C@H](N)C[C@@H]2N)[C@H](N)[C@@H](O)[C@@H]1O | 93.5%

Set 4
Structure (SMILES): COc1ccc2cc(OCC3(C(=O)O)CN(C(=O)c4ccc(F)cc4)C3)ccc2c1
Observed: cell-free assay
Method: competition with immobilised ligand
Concentration: 1 µM
target | remaining binding [%]
Serine/threonine-protein kinase PLK2 (PLK2, Homo sapiens, UniProt Q9NYY3) | 100
Non-receptor tyrosine-protein kinase TNK1 (TNK1, Homo sapiens, UniProt Q13470) | 100
Phosphatidylinositol 4,5-bisphosphate 3-kinase catalytic subunit alpha isoform (PIK3CA, Homo sapiens, UniProt P42336, H1047Y) | 100
Cyclin-dependent kinase-like 5 (CDKL5, Homo sapiens, UniProt O76039) | 97
RAF proto-oncogene serine/threonine-protein kinase (RAF1, Homo sapiens, UniProt P04049) | 100
Mast/stem cell growth factor receptor Kit (KIT, Homo sapiens, UniProt P10721, D816V) | 100
SRSF protein kinase 2 (SRPK2, Homo sapiens, UniProt P78362) | 84
Phosphatidylinositol 4,5-bisphosphate 3-kinase catalytic subunit delta isoform (PIK3CD, Homo sapiens, UniProt O00329) | 100
Tyrosine-protein kinase ABL1, phosphorylated (ABL1, Homo sapiens, UniProt P00519, M351T) | 87
Mast/stem cell growth factor receptor Kit (KIT, Homo sapiens, UniProt P10721) | 100
BDNF/NT-3 growth factors receptor (NTRK2, Homo sapiens, UniProt Q16620) | 100
Ribosomal protein S6 kinase alpha-4, C-terminal kinase domain (RPS6KA4, Homo sapiens, UniProt O75676) | 85
Mitogen-activated protein kinase kinase kinase kinase 5 (MAP4K5, Homo sapiens, UniProt Q9Y4K4) | 86
Dual specificity tyrosine-phosphorylation-regulated kinase 1A (DYRK1A, Homo sapiens, UniProt Q13627) | 100
Serine/threonine-protein kinase BRSK1 (BRSK1, Homo sapiens, UniProt Q8TDC3) | 85
Homeodomain-interacting protein kinase 2 (HIPK2, Homo sapiens, UniProt Q9H2X6) | 78
1-phosphatidylinositol 3-phosphate 5-kinase (PIKFYVE, Homo sapiens, UniProt Q9Y2I7) | 91
